Experimental data pooled from the literature.
± gives the spread as reported.

For `CCN1CCN(Cc2ccc(Nc3ncc(F)c(-c4cc(F)c5nc6n(c5c4)[C@H](C)CCC6)n3)nc2)CC1`, “Neutropenia incidence, grade ≥3” read 8.3% (advanced solid tumour patients; dose not given, Phase Ia monotherapy).
The drug concentration of `COc1ncccc1-c1cnn2ccc(N3CCN(C(=O)OC(C)C)CC3)nc12` is reported as 44 nM (rat, thermal hyperalgesia model, plasma; oral, 1 mg/kg, 180 min).
Under “intact parent fraction”, `CC(C)NCCCC[C@@H]1NC(=O)[C@H](Cc2ccc(O)cc2)NC(=O)[C@H](Cc2ccccc2)NC(=O)CC[C@H](C(=O)N[C@@H](CCCCNC(C)C)C(=O)N[C@@H](CCCCNC(=O)[C@H](CCC(=O)O)NC(=O)[C@H](CCC(=O)O)NC(=O)[C@H](CCC(=O)O)NC(=O)CN2CCN(CC(=O)O)CCN(CC(=O)O)CC2)C(N)=O)NC(=O)CNC(=O)[C@H](Cc2ccc3ccccc3c2)NC(=O)[C@@H](CCCNC(=N)N)NC1=O` [fluorine-18 labelled] is recorded as 95.4 ± 1.47% (mouse, urine; 75 min, post injection).
The measured concentration of `O=C(O)CCC(CP(=O)(O)O)C(=O)O` (stereo not drawn) is reported as 7.73 ± 0.27 µg/mL (rat, plasma; 8 µg/mL, 28 days, -80 °C, long-term stability).
`CCC[C@@](N)(CO)CCc1ccc(OCCCCCC(C)C)cc1` gave an AUC(0-last) of 12.6 µM·h (hound dogs, male; oral, 10 mg/kg, capsule, fed state, geometric mean).
`Nc1ncnc2c1ncn2[C@@H]1O[C@@H]2COP(=O)([S-])O[C@@H]3[C@H](O)[C@@H](COP([O-])(=S)O[C@H]2[C@H]1O)O[C@H]3n1cnc2c(N)ncnc21.[Na+].[Na+]` (stereo partly drawn) gave a neutrophil percentage of 16 ± 7.89% (non-tumor-bearing mice, blood; intravenous, 1 mg/kg, toxicity study).
Under DNA damage, `CC(C)CC(=O)OC[C@H]1O[C@@](C#N)(c2ccc3c(N)ncnn23)[C@H](O)[C@@H]1O` is recorded as “negative” (comet; Sprague-Dawley rat, stomach and liver cells; oral, dose not given, twice daily for two days).
For `Oc1c(Cl)cc2c(c1Cl)Oc1cc(Cl)c(Cl)cc1O2`, “dose fraction in milk fat” read 53.1% (whole cow milk; 20 nM nominal).
The Neutropenia incidence of `CCN1[C@@H](C(=O)NC23CCC(C(=O)O)(CC2)CC3)[C@H](c2cccc(Cl)c2F)[C@]2(C(=O)Nc3cc(Cl)ccc32)C12CCCCC2` is reported as 38.1% (patients with advanced solid tumours; oral, dose not given, all doses).
Under “median fetal accumulation”, `CCC[C@H]1CC[C@H](c2ccc(-c3ccc(F)cc3)cc2)CC1` is recorded as 0.81 ng/g (rat, fetus; 5000 ng/mL in perfusate, high dose, mixture of 21 LCMs).
Under “elimination rate constant”, `Cl.Cn1c(=O)n(CCCCN2CCC3(CC2)OCc2ccccc23)c2ccccc21` is recorded as 5.28e-05 s⁻¹ (male Sprague-Dawley rat, plasma; intravenous, 10 mg/kg).
For `O=C(Nc1ccccc1)C1CCN(C(=O)Oc2cccnc2)CC1`, “change in Sounds score” read 0.1 (psychotropic effects VAS; healthy women; 100 mg; relative to: pre-dose baseline, direction not given).
`COc1ccc([C@@H](O)c2cc(-c3ncnc4cc(N5CCOCC5)ccc34)c(F)cc2Cl)nn1` has a hypocalcaemia incidence of 3% (patients, advanced solid tumours; oral, 250 mg twice daily, treatment-emergent, added: avelumab).
`CC(C)(c1ccccc1)c1cc(-n2nc3ccccc3n2)c(O)c(C(C)(C)c2ccccc2)c1`: “daily dermal exposure dose” 1.8 ng/kg/day (human aged 6-11 years; concentration not given, sunscreen, 95th percentile).
`O=C(Nc1ccc2c(c1)B(O)OC2)c1ccc(Oc2ccccc2)cc1` has a membrane retention of 20.9% (PAMPA; 200 µM, 5 h, pH 7.4).
`O=C(CCCCCCC(=O)Nc1ccccc1)NO` gave an MTD of 300 mg (phase 1 dose escalation; patients with advanced solid malignancies; oral, added: bortezomib 1.3 mg/m^2 iv).
Under “treatment-emergent adverse events”, `CCS(=O)(=O)Nc1ccc(Oc2ccc(F)cc2F)c(-c2cn(C)c(=O)c3[nH]ccc23)c1` is recorded as 5% (Staphylococcal bacteremia leading to discontinuation; human, relapsed/refractory AML; oral, dose not given).
`C[C@@H](NC(=O)N1C(=O)[C@H](Cc2ccnc(N)c2)[C@H]1C(=O)O)C1CCCCC1`: “incidence of infusion site pain” 0% (healthy adult Chinese volunteers; continuous intravenous infusion, 1.5 mg/kg/h, 5-day infusion, CTCAE 5.0 grading).
For `CN1CC[C@@H](c2c(O)cc(O)c3c(=O)cc(-c4ccc(C(F)(F)F)cc4Cl)oc23)[C@@H]1CO`, “patients with adverse event” read 0% (refers to: Anemia; relapsed B-cell malignancies; oral, 150 mg, grade 3-4, intermittent dosing).
`C[C@]1(O)C[C@@](N)(c2ccc(-c3nc4n(c3-c3ccccc3)COc3ccncc3-4)cc2)C1` — result for “patients with any TEAE”: 100% (human, advanced or metastatic solid tumours; dose not given, once-daily dose escalation total).
The linearity index of `C[C@]1(CO)Cc2ncn(-c3ccc(C#N)c(Cl)c3)c2C(=O)O1` is reported as 102% (human, plasma; 3 mg multiple doses; relative to: dose-proportional exposure).
The amylase of `CN1CCN(S(=O)(=O)c2cc([N+](=O)[O-])ccc2N(CCOS(C)(=O)=O)CCOS(C)(=O)=O)CC1` is reported as 676 U/L (naive NOD/SCID mice, pooled blood; intraperitoneal, 18.8 mg/kg, week 4).
`CO[C@H]1C[C@@H]2CC[C@@H](C)[C@@](O)(O2)C(=O)C(=O)N2CCCC[C@H]2C(=O)O[C@H]([C@H](C)C[C@@H]2CC[C@@H](OC(=O)NCCOCCOCCOCCOCCOCCOCCOCCOCCC(=O)N3CCc4cc(Cn5nc(-c6ccc7oc(N)nc7c6)c6c(N)ncnc65)ccc4C3)[C@H](OC)C2)C[C@@H](O)[C@H](C)/C=C(\C)[C@@H](O)[C@@H](OC)C(=O)[C@H](C)C[C@H](C)/C=C/C=C/C=C/1C` has a fatigue incidence of 68.8% (patients with advanced solid tumours; intravenous, 8 mg weekly, any grade).
`CC(=O)NCC(=O)NCC(=O)N[C@H](C(=O)N[C@@H](Cc1ccc(O)cc1)C(=O)N[C@@H](CO)C(=O)N[C@H]1CSSC[C@@H](C(=O)N[C@@H](CCCNC(=N)N)C(=O)N2CCC[C@H]2C(=O)N[C@@H](CCC(N)=O)C(=O)N[C@@H](CCCNC(=N)N)C(=O)NCC(=O)NCCC(=O)N[C@@H](CCCCNC(=O)CN(CC(=O)NCCCC[C@H](NC(=O)CCNC(=O)CNC(=O)[C@H](CCCNC(=N)N)NC(=O)[C@H](CCC(N)=O)NC(=O)[C@@H]2CCCN2C(=O)[C@H](CCCNC(=N)N)NC(=O)[C@@H]2CSSC[C@H](NC(=O)[C@H](CO)NC(=O)[C@H](Cc3ccc(O)cc3)NC(=O)[C@@H](NC(=O)CNC(=O)CNC(C)=O)[C@@H](C)O)C(=O)N[C@@H](Cc3c[nH]cn3)C(=O)N[C@@H](Cc3ccccc3)C(=O)NCC(=O)N[C@@H](C)C(=O)N[C@@H](CC(C)C)C(=O)N[C@@H]([C@@H](C)O)C(=O)N[C@@H](Cc3c[nH]c4ccccc34)C(=O)N[C@@H](C(C)C)C(=O)N2)C(N)=O)C(=O)CCN)C(N)=O)NC(=O)[C@H](C(C)C)NC(=O)[C@H](Cc2c[nH]c3ccccc23)NC(=O)[C@H]([C@@H](C)O)NC(=O)[C@H](CC(C)C)NC(=O)[C@H](C)NC(=O)CNC(=O)[C@H](Cc2ccccc2)NC(=O)[C@H](Cc2c[nH]cn2)NC1=O)[C@@H](C)O` — result for serum concentration: “not detected” (MSD immunoassay; BALB/c mice, healthy female, serum; subcutaneous, 0.08 mg/kg, 2 h, LLOQ 2.0 ng/mL).
`CC(=O)c1c(C)c2cnc(Nc3ccc(C4CCN(CCS(C)(=O)=O)CC4)cn3)nc2n(C2CCCC2)c1=O` has a Tmax of 1.56 h (human, plasma; oral, 75 mg twice daily, day 21, multiple dose, added: letrozole).
`CCc1ccc(CC/C=C/c2ccc3c(c2)C(=O)CC3)cc1` gave a Urea of 5 mM (Sprague-Dawley rat, male; oral, 450 mg/kg/day, 14 days).
For `COc1cc2c(Oc3ccc4[nH]c(C)cc4c3F)ccnc2cc1OCC1(N)CC1`, “grade 3 Myalgia” read 0% (paediatric recurrent refractory sarcoma; 10 mg).
